Experimental data collected from several papers.

With `COC(=O)[C@H]1[C@@H](c2ccc(Cl)c(C)c2)C[C@@H]2CC[C@H]1N2` the ED50 was 0.25 mg/kg (nicotine conditioned place preference, antagonist; mouse; sc, added: nicotine 0.5 mg/kg sc).
The ED50 of `COc1ccc([C@]2(O)OCC(C)(C)N[C@H]2C)cc1` is reported as 0.019 mg/kg (nicotine antinociception blockade, antagonist, tail-flick test; mouse; 15 min pretreatment, added: nicotine 2.5 mg/kg subcutaneous).
`Cl.O=C(OCCN1CCOCC1)C1(c2ccccc2)CCCCC1` — result for ED50: “inactive” (antiallodynic effect; mouse, capsaicin-induced mechanical allodynia; subcutaneous, 32 to 64 mg/kg, 45 min before test, stimulus 0.5 g force, added: capsaicin 1 µg intraplantar).
`CC[C@@H]1CN2CC[C@]3(Nc4cccc(OC)c4C3=O)[C@@H]2C[C@@H]1/C(=C\OC)C(=O)OC` has an ED50 of 0.69 mg/kg (antinociception, tail flick; mouse; before repeated dosing).
The ED50 of `CN1CC[C@]23c4c5ccc(O)c4O[C@H]2[C@@H](O)C=C[C@H]3[C@H]1C5` is reported as 2.34 nmol (antinociception, 55 °C warm-water tail withdrawal; C57BL/6J mouse; icv, 20 to 30 min).
`CC(NC(C)(C)C)C(=O)c1cccc(Cl)c1` (centres unmarked) gave an ED50 of 15 mg/kg (nicotine-induced antinociception, antagonist, hot-plate test; mouse; added: nicotine 2.5 mg/kg sc).
For `C[C@@H]1NC(C)(C)CO[C@@]1(O)c1ccc(Cl)cc1`, the ED50 was 0.019 mg/kg (nicotine antinociception blockade, antagonist, tail-flick test; mouse; 15 min pretreatment, added: nicotine 2.5 mg/kg subcutaneous).
`COC(=O)[C@H]1[C@@H](c2ccc(Cl)c(C)c2)C[C@@H]2CC[C@H]1N2C` has an ED50 of 0.25 mg/kg (nicotine conditioned place preference, antagonist; mouse; sc, added: nicotine 0.5 mg/kg sc).
`C[C@@H]1NC(C)(C)CO[C@@]1(O)c1ccc(-c2ccccc2)cc1` gave an ED50 of 0.021 mg/kg (nicotine antinociception blockade, antagonist, tail-flick test; mouse; 15 min pretreatment, added: nicotine 2.5 mg/kg subcutaneous).
With `CC(C(=O)c1cccc(F)c1)N1CCCC1` (centres unmarked) the ED50 was 7.5 mg/kg (nicotine-induced hypothermia, antagonist; mouse; 30 min after nicotine, added: nicotine 2.5 mg/kg s.c.).
The ED50 of `CCCCCc1cc(O)c2c(c1)OC(C)(CCC=C(C)C)C=C2` (centres unmarked) is reported as 38.7 mg/kg (paw edema, inhibitor; mouse, LPS-induced paw edema; intraperitoneal, added: LPS).

Excerpt of the above:
For `C[C@@H]1NC(C)(C)CO[C@@]1(O)c1ccc(Cl)cc1`, the ED50 was 0.019 mg/kg (nicotine antinociception blockade, antagonist, tail-flick test; mouse; 15 min pretreatment, added: nicotine 2.5 mg/kg subcutaneous).
`COC(=O)[C@H]1[C@@H](c2ccc(Cl)c(C)c2)C[C@@H]2CC[C@H]1N2C` has an ED50 of 0.25 mg/kg (nicotine conditioned place preference, antagonist; mouse; sc, added: nicotine 0.5 mg/kg sc).
